Experimental data collected from several papers.
Each numbered part is a random draw from the data of one study; scales do not carry over between parts. “And” joins repeats or separate records; there may be more than shown. Positions count from the first letter of the parent shown.

Study 1
Target: PABPC1L2, full length, GST fusion (mouse, UniProt A0ABA7IW68)
Method: RNAcompete
Molecule type: RNA
Matrix: in vitro
Tested at: 20 nM
Notes: 7-mer, probes averaged, single round
Reference: mean of 7-mers
Direction: higher = stronger binding
| Oligonucleotide | 7-mer Z-score |
| --- | --- |
| UAGACUA | -0.0917 |
| CCAUCCA | -0.197 |
| CAGCAUC | -0.166 |
| CGUUAGG | -0.32 |
| UCACCAU | -0.0699 |
| CCGCACG | -0.315 |
| CGAACAU | -0.18 |
| UAAUAAA | 1.01 |

Study 2
Target: ABI1, truncated, D143A, DHFR fusion (Arabidopsis thaliana)
Method: DHFR PCA, deep sequencing
Matrix: yeast
Notes: methotrexate growth selection, single substitutions
Together with: (+)-ABA 4.8 µM
Reference: wild-type fitted maximum
Direction: higher = stronger binding
Starting sequence: PYL1, truncated, DHFR fusion (Arabidopsis thaliana); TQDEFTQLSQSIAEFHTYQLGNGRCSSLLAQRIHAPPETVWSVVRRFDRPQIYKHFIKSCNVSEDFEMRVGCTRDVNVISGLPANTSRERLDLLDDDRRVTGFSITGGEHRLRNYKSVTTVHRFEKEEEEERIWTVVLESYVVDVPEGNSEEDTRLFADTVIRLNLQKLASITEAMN; partner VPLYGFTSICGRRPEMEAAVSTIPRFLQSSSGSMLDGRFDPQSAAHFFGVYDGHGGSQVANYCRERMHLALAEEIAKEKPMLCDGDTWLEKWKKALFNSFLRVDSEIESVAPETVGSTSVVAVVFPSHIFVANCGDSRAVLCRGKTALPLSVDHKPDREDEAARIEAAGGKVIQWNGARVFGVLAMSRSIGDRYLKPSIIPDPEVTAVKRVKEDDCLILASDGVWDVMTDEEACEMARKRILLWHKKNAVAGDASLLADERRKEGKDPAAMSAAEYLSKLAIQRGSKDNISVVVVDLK
| Variant | relative binding score [%] |
| --- | --- |
| S80Q | -0.27 |
| Q2V | 77 |
| L91K | -10.6 |
| Y141G | -3.44 |
| H55I | 83.4 |
| M68E | 15.6 |
| V78H | 18.5 |
| P50E | 7.75 |

Study 3
Target: Histone acetyltransferase KAT6A, both winged helices, GST fusion (KAT6A, Homo sapiens, UniProt Q92794, residues 1-181)
Method: protein binding microarray
Molecule type: double-stranded DNA, one strand shown
Matrix: in vitro
Tested at: not given
Notes: 8-mer, flanks averaged, mean of 2 arrays, mostly near background
Reference: not given
Direction: higher = stronger binding
Construct (chain): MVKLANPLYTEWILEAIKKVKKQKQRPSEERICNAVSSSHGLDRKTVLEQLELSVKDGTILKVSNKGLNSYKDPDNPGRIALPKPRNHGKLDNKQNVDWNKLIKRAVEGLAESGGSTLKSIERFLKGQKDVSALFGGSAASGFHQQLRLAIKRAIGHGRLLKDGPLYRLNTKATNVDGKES
| Oligonucleotide | E-score |
| --- | --- |
| CAAACCGC | 0.178 |
| CAAATACC | -0.0484 |
| CTCAGGCC | -0.0321 |
| CCCCCACG | -0.00518 |
| GATGCTAC | -0.122 |
| CAGGCTCG | 0.2 |
| TGCTATAA | -0.214 |
| GCATACGC | 0.172 |

Further values, each from its own experiment
| Structure (SMILES) | cell line | assay | conditions | scale | measurement | result |
| --- | --- | --- | --- | --- | --- | --- |
| CCC(C)n1ncn(-c2ccc(N3CCN(c4ccc(OCC5COC(Cn6cncn6)(c6ccc(Cl)cc6Cl)O5)cc4)CC3)cc2)c1=O (stereo not shown) | mouse MPNST tumor cells | high-content nuclear imaging, refers to: cell number | 10 µM, 12 h, mean of 2 replicates | reference: plate mean, higher = more cells | nuclei count | 3.92 z-score and -4.88 z-score |

Repeated from above (study 3):
| Oligonucleotide | E-score |
| --- | --- |
| CTCAGGCC | -0.0321 |
| CCCCCACG | -0.00518 |
| GATGCTAC | -0.122 |
| CAGGCTCG | 0.2 |
